Assay results collected from several papers.
Every numbered part comes from another study and shows a few of its results, in no order. Positions count from the first letter of the parent shown.

Block 1
Target: CCNE2, cyclin fold, Cln2 fusion (human)
Method: yeast growth competition, sequencing
Sample: yeast
Notes: strong parent motif
Baseline: not given
Direction: higher = stronger binding
Parent: BRCA2 docking peptide (human); CKKRRALDFLSRL
Substitution | normalised enrichment score
CKKRRALAFLSRL [D8A] | 1.5
CKKRKALDLLSRL [R5K F9L] | 1.39
CKKRRALDFLSAL [R12A] | 1.53
CKKARALDFLSRL [R4A] | 0.608
CKKRAALDFLSRL [R5A] | 1.4
CKKRRAADFLSRL [L7A] | 1.32
CKKRRALDLLSRL [F9L] | 0.8
CKKRRALDFLSRA [L13A] | 1.29
CKKRAAADFLSRL [R5A L7A] | 1.2

Block 2
Target: MAFK, bZIP domain (human)
Method: DHFR protein complementation
Sample: yeast
Notes: single substitutions, most at no-binding floor
Baseline: wild-type JUN-FOS pair
Direction: higher = stronger binding
Parent: JUN, bZIP domain (human); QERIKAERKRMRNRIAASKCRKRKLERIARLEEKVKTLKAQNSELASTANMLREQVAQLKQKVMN; partner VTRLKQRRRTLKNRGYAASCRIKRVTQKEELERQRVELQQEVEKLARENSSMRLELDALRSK
Substitution | binding fitness
K39G | -1.49 natural log
S47H | -1.4 natural log
A40T | -1.46 natural log
S47K | -1.34 natural log
L52C | -1.53 natural log
E54G | -1.35 natural log
L31S | -1.48 natural log
L45C | -1.54 natural log
V35K | -1.49 natural log
L45S | -1.55 natural log
E44K | -1.49 natural log
V35Q | -1.46 natural log
L38P | -1.49 natural log
Q41W | -1.54 natural log
A46W | -1.55 natural log
E32L | -1.43 natural log
L38K | -1.51 natural log
M51H | -1.48 natural log
A40M | -1.48 natural log
T37Y | -1.19 natural log
K39Q | -1.52 natural log
A29P | -1.49 natural log
E54A | -1.29 natural log
L59S | -1.53 natural log
E44N | -1.45 natural log

Block 3
Target: Sal-like protein 4, full length isoform A (SALL4, Homo sapiens, UniProt Q9UJQ4, residues 1-1053)
Sequence of UniProt Q9UJQ4 (whole entry, looked up): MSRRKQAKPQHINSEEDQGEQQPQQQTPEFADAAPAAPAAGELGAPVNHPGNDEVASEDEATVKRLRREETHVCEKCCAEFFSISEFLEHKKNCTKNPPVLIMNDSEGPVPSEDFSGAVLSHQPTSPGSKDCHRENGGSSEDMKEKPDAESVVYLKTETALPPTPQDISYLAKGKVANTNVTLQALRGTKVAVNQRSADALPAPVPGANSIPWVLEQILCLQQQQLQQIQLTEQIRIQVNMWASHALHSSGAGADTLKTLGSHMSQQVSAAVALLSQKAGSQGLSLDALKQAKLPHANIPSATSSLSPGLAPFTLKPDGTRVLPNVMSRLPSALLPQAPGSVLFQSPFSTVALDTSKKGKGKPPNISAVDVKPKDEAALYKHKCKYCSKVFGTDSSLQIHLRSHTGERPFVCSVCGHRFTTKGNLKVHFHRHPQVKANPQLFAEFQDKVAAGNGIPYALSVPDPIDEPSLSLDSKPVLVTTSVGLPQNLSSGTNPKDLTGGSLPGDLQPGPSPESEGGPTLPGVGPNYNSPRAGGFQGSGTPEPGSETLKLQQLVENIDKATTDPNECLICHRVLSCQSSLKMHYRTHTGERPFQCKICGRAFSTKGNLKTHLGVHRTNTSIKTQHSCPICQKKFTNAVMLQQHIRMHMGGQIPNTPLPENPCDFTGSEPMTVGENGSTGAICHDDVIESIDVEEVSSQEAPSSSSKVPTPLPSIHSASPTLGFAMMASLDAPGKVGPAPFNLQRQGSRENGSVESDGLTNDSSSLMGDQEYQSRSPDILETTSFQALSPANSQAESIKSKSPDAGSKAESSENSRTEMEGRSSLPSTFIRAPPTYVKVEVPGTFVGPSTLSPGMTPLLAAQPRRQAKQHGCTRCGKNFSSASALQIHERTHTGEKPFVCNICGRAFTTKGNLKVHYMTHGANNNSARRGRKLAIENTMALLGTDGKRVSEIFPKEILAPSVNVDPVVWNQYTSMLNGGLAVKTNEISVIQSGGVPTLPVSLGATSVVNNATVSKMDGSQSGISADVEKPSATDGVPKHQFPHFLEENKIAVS
Method: universal PBM
Form: double-stranded DNA, one strand shown
Sample: in vitro
Concentration: 600 nM
Notes: 8-mer, flanks averaged, mean of replicates
Direction: higher = stronger binding
Sequence | E-score
GCACCAGC | -0.322
CGCGCGCG | -0.33
ACAGTAAG | 0.0343
CAATTCGC | 0.00675
CGCCTAGC | -0.248
GAAGACTA | 0.042
ACACCTTA | 0.0623
AGCTCCAC | -0.237
CCAATCCG | -0.119
TCCTTTAA | 0.0925
GAGGCTTA | -0.0371
CGGTTTGA | -0.108
AAGGGCGA | -0.204
ACATTACT | 0.235
ATCTCATG | 0.0241
TACTACGA | 0.134

Block 4
Target: Prothrombin, mature alpha-thrombin (F2, Homo sapiens, UniProt P00734)
Method: aptamer microarray, sandwich
Form: DNA with 2'F-ANA
Sample: in vitro
Concentration: 200 nM
Notes: whole 15-mer aptamer, many near background
Together with: Cy3 exosite-II aptamer, 400 nM
Direction: higher = stronger binding
Sequence: GGTTGGTGTGGTTGG
Modification | mean fluorescence intensity [a.u.]
2'F-ANA at 1 3 4 7 11 13 14 | 71.6
2'F-ANA at 1 2 5 13 14 15 | 61.3
2'F-ANA at 2 4 7 8 10 12 15 | 148
2'F-ANA at 1 3 5 7 10 11 12 14 | 44.8
2'F-ANA at 2 3 4 8 10 | 255
2'F-ANA at 1 3 5 7 8 9 12 | 193
2'F-ANA at 1 3 4 5 7 12 13 | 86.1
2'F-ANA at 1 2 3 4 8 10 12 13 14 | 52.1
2'F-ANA at 1 7 12 15 | 503
2'F-ANA at 3 4 6 8 10 15 | 230
2'F-ANA at 1 3 4 5 6 8 10 11 12 13 14 15 | 68.4
2'F-ANA at 3 4 6 12 13 14 15 | 253
2'F-ANA at 1 2 4 5 6 13 15 | 59.6
2'F-ANA at 2 3 6 9 15 | 709
2'F-ANA at 1 2 4 6 7 8 12 14 | 77.5
2'F-ANA at 1 3 5 6 7 8 10 11 14 | 51.3
2'F-ANA at 3 6 8 11 12 15 | 998
2'F-ANA at 1 2 3 4 5 10 12 13 15 | 45.7
2'F-ANA at 1 2 3 5 7 9 14 15 | 46.3
2'F-ANA at 1 6 9 10 12 13 15 | 76.4
2'F-ANA at 1 2 5 6 8 9 11 13 14 15 | 84.1
2'F-ANA at 1 3 4 5 7 8 9 11 12 15 | 133

Block 5
Target: ABI1, truncated, D143A, DHFR fusion (Arabidopsis thaliana)
Method: DHFR PCA, deep sequencing
Sample: yeast
Notes: methotrexate growth selection, single substitutions
Together with: (+)-ABA 4.8 µM
Baseline: wild-type fitted maximum
Direction: higher = stronger binding
Parent: PYL1, truncated, DHFR fusion (Arabidopsis thaliana); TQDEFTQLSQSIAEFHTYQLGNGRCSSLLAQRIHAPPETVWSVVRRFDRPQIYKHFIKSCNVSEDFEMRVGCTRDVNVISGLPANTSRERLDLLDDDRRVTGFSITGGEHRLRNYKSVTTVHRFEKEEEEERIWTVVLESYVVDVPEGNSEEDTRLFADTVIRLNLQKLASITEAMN
Substitution | relative binding score [%]
M176C | 53.9
S59V | 23.9
E64F | 48.6
D3G | 56.2
V118P | -3.38
H110L | 3.59
S150R | 10.2
E129C | 72.1
F47R | 1.54
S26E | 3.53
T86I | 42.3
D96K | 7.51
R132Y | 63
L166K | -11.1
S80M | 10.4
L93T | 51.8
R49F | 20.8
H122C | 1.79
P37H | -15.3
V137N | -6.45
Q31T | 4.99
S42R | 62.9
G81N | 2.65

Block 6
Target: RNA binding protein fox-1 homolog 2, RRM domain, GST-SBP tag (RBFOX2, Homo sapiens, UniProt O43251-10, residues 100-194)
Method: RNA Bind-n-Seq
Form: RNA
Sample: in vitro
Concentration: 365 nM
Notes: natural RNA segment, single round, ends assumed
Baseline: no-protein control
Direction: higher = stronger binding
Shared flanks, not repeated: GGGAGUUCUACAGUCCGACGAUC … UGGAAUUCUCGGGUGCCAA
Target sequence (chain): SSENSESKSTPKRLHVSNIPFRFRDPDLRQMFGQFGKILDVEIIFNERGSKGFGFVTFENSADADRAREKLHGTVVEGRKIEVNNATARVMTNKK
Sequence | RBNS enrichment (R)
CCCAUCUCUUAACAAUAUGGACAGAUGAGUGUGCCAUGGCCAUGAGCUAUUUCCUAACGCAGAAGGAAUUUGUUGUUACUUUUUGGAUUGUACUCUUCUAGGCUGGACCG | 0.627
AGGAAAGGGGAAUUCUGUGAUGGCAAAUGAAAAAAAUGUUAACAUUUGGUAGACAUGUGCUUUGACAUAGCGUGAGCAGCACAUUACUAAAGCAAUUACAUGCAUGUUGC | 7.14
ACCUUGUCCUAUAUAUCCGUACGGAGGUGUGCAAUUCCUCGUGUCAGUAGCCUUGUGACACUGAACCUGGAUGGAUUAUAGAGGAGCCCUCACGGCUGAUCAAUAAUGUU | 0.649
GGUCCAGUCACAUUACUUUGCACUUCUUCUUCUUUUUUUUCUUUUUGUACAAAAUUUUAAAGACUUAAUUUAUUGCCAAAAUUCUGUGUAAAGUGACAGUGUAUCUAACA | 0.624
UUAUAAUUCACUAAAAUAAAGCAUCUAUUAGUGUCUGAUUUAGGAAUGUAAAAUGAUUCUGUAUUAAUGUAAAUAAGAUUAUCUAUUGCAAAAAGAUAUUUCAAACCUAA | 13
CUACAGUUUGUUUAGGAGGCCCUGACCUUCAUGGUGUCUUUGAAGCCCAACCACUCGGUUUCCUUCGGAUUUUCCUCCCUUUGUUCGGGGUUUGGUUUGGCUCCUCUGUG | 1.28
AUCAGAAAGAAACUAAGAAAAAGGAUAAAAAUAUCCAAAGGAGUUACAUUUUGAGGAAAAAGAACAAAAAAGAAGGUUAUUGCAAAACUGAUGAUGCCCAUGAUACAAUU | 0.642
UUUAGAUUUCCCACAUGGAUGGUUUGAGACUAGAGAAAUACUUUUCUCUAGUUCGUUGGUUUUUAACAUGAAGGUGUCUUUGGGGAGGACCUGGAUCAUGCUACCUGUGU | 0.976
CCUGCCAAGCUCACACAGCAGGAACUGAGCCAGAAACGCAGAUUGGGCUGGCUCUGAAGCCAAGCCUCUUCUUACUUCACCCGGCUGGGCUCCUCAUUUUUACGGGUAAC | 0.228
CAACACCAAAAAGAGAAAGUCUGGUUAAAACACCAUGAGUCAAAUGUCGGGCCAGCCAACAGUAACACUUGCCAAGAAGCAUGGCGUAGAAAUUUCUAUGUUCCGAAACA | 0.324
GACAAAACAUCUAUACGUACAGUACCACUAAUAAAUGUUGAGCUCCUGCUGUCCUGUUGGAAAGUUCUGGAAGUUAAGGACGGAGAGUGCUGUUUGUAAUGCAGUCUUCC | 0.43
UUUUAGGUAUAAAUUCUUAUGCUUUAACAUUAUUUCUGGAUUGAAAAUCUUAUAAAACCCUUGAAAAUAAACAGUCUCUUUUUUACAAAGCCUGUGUUAGAGCACAGAUU | 0.352
